Experimental data pooled from the literature.
Numbers after ± are the reported error.
Sequence of UniProt Q9H2G2 (whole entry, looked up): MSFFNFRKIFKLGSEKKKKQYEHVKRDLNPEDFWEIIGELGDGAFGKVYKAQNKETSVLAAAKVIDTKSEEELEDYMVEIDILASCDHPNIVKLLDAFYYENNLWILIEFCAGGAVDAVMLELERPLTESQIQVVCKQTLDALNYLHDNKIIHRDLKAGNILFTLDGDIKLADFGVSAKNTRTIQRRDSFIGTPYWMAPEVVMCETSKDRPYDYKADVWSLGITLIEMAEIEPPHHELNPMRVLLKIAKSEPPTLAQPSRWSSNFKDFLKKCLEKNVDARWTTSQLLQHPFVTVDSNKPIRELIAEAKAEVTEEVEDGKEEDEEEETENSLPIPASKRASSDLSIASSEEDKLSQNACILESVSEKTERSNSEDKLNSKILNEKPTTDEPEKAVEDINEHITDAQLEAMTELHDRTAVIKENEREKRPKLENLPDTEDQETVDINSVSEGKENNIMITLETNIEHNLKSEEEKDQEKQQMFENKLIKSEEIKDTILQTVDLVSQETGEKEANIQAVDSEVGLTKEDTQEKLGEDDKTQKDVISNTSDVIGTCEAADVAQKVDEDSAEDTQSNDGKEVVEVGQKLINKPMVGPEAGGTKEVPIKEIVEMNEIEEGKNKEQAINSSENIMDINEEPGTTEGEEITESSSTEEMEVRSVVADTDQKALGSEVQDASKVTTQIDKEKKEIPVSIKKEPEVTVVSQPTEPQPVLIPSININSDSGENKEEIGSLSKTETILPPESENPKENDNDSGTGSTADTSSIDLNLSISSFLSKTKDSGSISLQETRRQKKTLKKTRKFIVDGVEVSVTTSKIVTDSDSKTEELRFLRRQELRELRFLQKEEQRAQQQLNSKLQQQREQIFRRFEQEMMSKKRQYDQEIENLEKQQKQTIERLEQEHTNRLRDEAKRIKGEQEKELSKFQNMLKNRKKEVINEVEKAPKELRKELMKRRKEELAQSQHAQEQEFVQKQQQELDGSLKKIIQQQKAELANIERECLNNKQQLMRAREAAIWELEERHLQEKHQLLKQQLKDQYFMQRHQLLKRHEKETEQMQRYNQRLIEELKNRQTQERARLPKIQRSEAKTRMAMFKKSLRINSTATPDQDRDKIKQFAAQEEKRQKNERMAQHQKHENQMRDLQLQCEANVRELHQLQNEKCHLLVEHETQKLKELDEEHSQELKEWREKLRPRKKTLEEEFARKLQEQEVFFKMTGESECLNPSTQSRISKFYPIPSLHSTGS
Sequence of UniProt Q9UM73 (whole entry, unmodified, looked up): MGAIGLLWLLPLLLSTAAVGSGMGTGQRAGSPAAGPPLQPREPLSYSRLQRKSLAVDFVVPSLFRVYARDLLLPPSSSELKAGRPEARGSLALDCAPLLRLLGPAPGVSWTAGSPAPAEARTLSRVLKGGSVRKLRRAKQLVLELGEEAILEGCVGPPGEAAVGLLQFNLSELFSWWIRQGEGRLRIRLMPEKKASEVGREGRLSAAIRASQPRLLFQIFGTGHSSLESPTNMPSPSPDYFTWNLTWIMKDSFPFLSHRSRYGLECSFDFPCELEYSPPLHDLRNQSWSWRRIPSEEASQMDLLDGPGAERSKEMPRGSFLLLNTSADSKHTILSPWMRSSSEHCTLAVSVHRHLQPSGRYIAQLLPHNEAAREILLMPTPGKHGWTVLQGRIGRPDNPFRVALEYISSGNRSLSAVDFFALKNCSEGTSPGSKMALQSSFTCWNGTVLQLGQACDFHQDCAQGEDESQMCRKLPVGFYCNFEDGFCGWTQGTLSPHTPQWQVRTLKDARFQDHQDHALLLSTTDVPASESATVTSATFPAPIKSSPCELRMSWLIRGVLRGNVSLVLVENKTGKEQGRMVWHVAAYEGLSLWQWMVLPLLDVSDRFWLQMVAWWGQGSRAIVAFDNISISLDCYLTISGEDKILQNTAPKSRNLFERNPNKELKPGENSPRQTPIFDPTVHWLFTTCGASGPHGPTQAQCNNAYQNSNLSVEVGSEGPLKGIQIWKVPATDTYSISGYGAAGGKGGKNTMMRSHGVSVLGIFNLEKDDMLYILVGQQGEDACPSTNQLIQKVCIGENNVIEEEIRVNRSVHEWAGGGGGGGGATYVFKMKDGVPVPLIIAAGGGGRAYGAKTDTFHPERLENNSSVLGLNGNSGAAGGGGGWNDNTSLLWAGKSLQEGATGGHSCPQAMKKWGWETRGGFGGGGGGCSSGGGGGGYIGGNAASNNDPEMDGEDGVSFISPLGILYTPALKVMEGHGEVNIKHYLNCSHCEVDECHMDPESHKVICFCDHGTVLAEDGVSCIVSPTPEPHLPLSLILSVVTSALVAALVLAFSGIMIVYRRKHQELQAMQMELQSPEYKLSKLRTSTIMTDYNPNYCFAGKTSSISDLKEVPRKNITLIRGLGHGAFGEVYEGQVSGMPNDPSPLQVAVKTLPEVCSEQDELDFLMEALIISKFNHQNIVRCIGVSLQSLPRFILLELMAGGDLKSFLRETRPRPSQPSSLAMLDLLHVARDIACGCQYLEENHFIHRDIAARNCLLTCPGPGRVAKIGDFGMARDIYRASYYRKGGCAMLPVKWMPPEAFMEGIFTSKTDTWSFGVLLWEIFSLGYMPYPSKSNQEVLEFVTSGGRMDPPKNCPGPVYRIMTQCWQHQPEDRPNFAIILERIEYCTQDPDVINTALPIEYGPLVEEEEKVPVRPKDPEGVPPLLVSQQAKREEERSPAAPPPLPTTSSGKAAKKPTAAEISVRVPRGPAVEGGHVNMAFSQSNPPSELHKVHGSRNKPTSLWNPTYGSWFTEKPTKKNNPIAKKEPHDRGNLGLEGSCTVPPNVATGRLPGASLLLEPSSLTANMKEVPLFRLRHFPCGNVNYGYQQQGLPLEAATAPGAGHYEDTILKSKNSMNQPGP

Compound	tested on	test	system	conditions	scale	quantity	value
CN(C)[C@H]1C[C@@]23CC[C@@]4(O2)C(=CC[C@]2(C)[C@@H](c5ccc6ccncc6c5)CC[C@H]24)C=C3[C@@H](O)[C@@H]1O	SLK (Homo sapiens, UniProt Q9H2G2)	ATP probe labelling, inhibitor, KiNativ profiling	–	1 µM	–	inhibition	1.5%
CC(C)(C)C(=O)OCOP(=O)(OCOC(=O)C(C)(C)C)C1CCCN(O)C1=O (stereo not shown)	RPMI-8226	–	–	–	–	log TGI	-5.95 log M
COc1ccccc1-c1n[nH]c2nc(N[C@H]3CC[C@H](NS(=O)(=O)CC(C)C)CC3)ncc12	–	bead binding, competition bead pull-down, measured: LINJ.05.0500	Leishmania donovani extract	10 µM	reference: vehicle	relative abundance	1.08
CC(C)[C@H]1NC(=O)C[C@H]2/C=C/CCSSC[C@@H](NC1=O)C(=O)N[C@H](Cc1cccc3ccccc13)C(=O)NCC(=O)O2	ALK (Homo sapiens, UniProt Q9UM73, L1196M)	enzyme activity, inhibitor	–	10 µM	–	inhibition	5%
CCN(Cc1ccccc1)C(=O)CCc1nc(CN2CCN(C(=O)Cc3ccc(OC)c(OC)c3)CC2)no1	–	current clamp	DRG neurons, naive rat	1 µM	–	action potential amplitude	83 ± 8.57 mV
CC(C)CC1NCCc2cc(O)c(O)cc21 (stereo not shown)	–	DPPH scavenging, absorbance	–	30 min, dark	–	IC50	21.7 µM
CC(C)C[C@@H]1NC(=O)[C@@H](Cc2c[nH]c3ccccc23)NC(=O)[C@H](CCCNC(=N)N)NC(=O)[C@@H](CCC(=O)O)NC(=O)[C@H](CCC(N)=O)NC(=O)[C@@H](CCC(=O)O)NC(=O)[C@H](CCCNC(=N)N)NC(=O)[C@@H](Cc2c[nH]c3ccccc23)NC1=O	–	Luminex, measured: G-CSF	LDLr-/- mice, Western diet, liver	dose not given, 4 weeks	–	cytokine level	380 ± 150 pg/g tissue
C(=N\Cc1cc(C/N=C/c2cccs2)cc(-c2cc(C/N=C/c3cccs3)cc(C/N=C/c3cccs3)c2)c1)/c1cccs1	–	–	hACE2 mice, bronchoalveolar lavage fluid	dose not given	reference: control	IFN-gamma level	decreased
NNC(=O)c1ccccc1	–	hydrazine ligation kinetics, absorbance	–	concentration not given, 45 s, added: 2-formylphenylboronic acid	–	normalised absorbance	0.78
CS(C)(=O)=Nc1ccc(-c2ccc(-c3nc4cc(O[C@@H]5CO[C@H]6[C@@H]5OC[C@H]6O)[nH]c4cc3F)cc2)cc1	kainate receptor	binding	–	10 µM	–	inhibition	9%
CN[C@@H]1C[C@H]2O[C@@](C)([C@@H]1OC)n1c3ccccc3c3c4c(c5c6ccccc6n2c5c31)C(=O)NC4	–	annexin V flow cytometry	pancreatic islet cells, mouse	1 µM, 24 h	–	late apoptotic or necrotic cells	0%
CO[C@H]1CC=C2CCN3CCC4=C(CC(=O)CC4)[C@]23C1	–	intermittent two-bottle choice	Wistar rat, 20% ethanol drinking	subcutaneous, 6 mg/kg, 24 h	reference: ethanol over total fluid intake	ethanol preference	48 ± 5%
COc1ccccc1-c1n[nH]c2nc(NC3CCN(C(=O)Cc4ccc(F)cc4F)CC3)ncc12	–	bead binding, competition bead pull-down, measured: LINJ.26.1220	Leishmania donovani extract	10 µM	reference: vehicle	relative abundance	0.96
O=C1NC2(CC2)COc2ncc(F)cc2[C@H]2COCCN2c2ccn3ncc1c3n2	–	–	Sprague-Dawley rat, male, serum	oral, 20 mg/kg/day, 4 weeks daily, end of treatment	–	total cholesterol	1.34 ± 0.25 mmol/L
O=[N+]([O-])[O-].O=c1c(C=NN=C([S-])Nc2ccccc2)coc2ccccc12.[Cu+2].c1cnc2c(c1)c1nccnc1c1cccnc12	–	DNA cleavage	supercoiled pUC19 DNA	100 µM, 4 h, 37 °C, no reducing agent, added: DNA 40 µM	–	nicked circular DNA form	16%
Cc1ccc(S(=O)(=O)N2CC2C(=O)N(C)C)cc1 (stereo not shown)	–	–	mouse, Lewis lung carcinoma	intraperitoneal, 170 mg/kg, 16 doses, day 15	–	tumour volume	1100 mm3

Some of these lines once more:
Compound	tested on	test	system	conditions	scale	quantity	value
NNC(=O)c1ccccc1	–	hydrazine ligation kinetics, absorbance	–	concentration not given, 45 s, added: 2-formylphenylboronic acid	–	normalised absorbance	0.78
CS(C)(=O)=Nc1ccc(-c2ccc(-c3nc4cc(O[C@@H]5CO[C@H]6[C@@H]5OC[C@H]6O)[nH]c4cc3F)cc2)cc1	kainate receptor	binding	–	10 µM	–	inhibition	9%
